{"data": "Published values from different studies", "AKT1": "RAC-alpha serine/threonine-protein kinase (AKT1, Homo sapiens, UniProt P31749)", "AKT1 S473D": "RAC-alpha serine/threonine-protein kinase (AKT1, Homo sapiens, UniProt P31749, S473D)", "note": "Each line is one published result; not all experiments were run side by side. Several values in a cell are separate wells, animals, samples, runs or records. Numbers after ± are the reported error."}
{"SMILES": "Cc1cnc2nc1Nc1cccc(c1)COC/C=C/COCc1cc(ccc1OCCN1CCOCC1)N2", "target": "AKT1", "assay": "binding", "conditions": "0.1 µM", "quantity": "remaining binding", "result": "100%"}
{"SMILES": "CCN1CCN(Cc2ccc(C(=O)Nc3ccc(C)c(NCc4cnc5[nH]ccc5c4OC)c3)cc2C(F)(F)F)CC1", "target": "AKT1", "assay": "binding, competition with immobilised ligand", "conditions": "1 µM", "quantity": "remaining binding", "result": "100%"}
{"SMILES": "CNC(=O)C[C@H](Cc1ccc(C#N)cc1)NC(=O)c1cc(-c2ccc(CN[C@H](C)c3ccc(C)cc3)o2)ccc1Cl", "target": "AKT1", "assay": "enzyme activity, inhibitor", "conditions": "1 µM", "quantity": "activity vs control", "result": "69%"}
{"SMILES": "O=C(Cc1ccc(OCc2ccccc2)cc1)NC1(C(=O)O)CCN(C(=O)c2ccc(-c3cccc(Cl)c3)cc2)CC1", "target": "AKT1", "assay": "enzyme activity, inhibitor", "conditions": "10 µM", "quantity": "activity vs control", "result": "111%"}
{"SMILES": "COc1cc(Nc2nc(C)cc(-c3cnn4nc(OC)ccc34)n2)cc(C(F)(F)F)c1", "target": "AKT1", "assay": "inhibitor", "conditions": "1 µM", "how to read": "baseline: control", "quantity": "remaining activity", "result": "100%"}
{"SMILES": "COc1ccc(NC(=O)Nc2ccc3c(c2)C(=O)N(C(C)CO)CC(C)C(CN(C)Cc2ccc4c(c2)OCO4)O3)cc1 (centres unmarked)", "target": "AKT1", "assay": "binding, competition with immobilised ligand", "conditions": "10 µM", "quantity": "remaining binding", "result": "87%"}
{"SMILES": "CC(=O)N1c2ccc(-c3ccc(CNC(=O)c4cn5cc(-c6cnc(N)nc6)nc(N6CCOCC6)c5n4)cc3)cc2CC[C@@H]1C", "target": "AKT1", "assay": "KINOMEscan", "conditions": "10 µM", "quantity": "remaining binding", "result": "98%"}
{"SMILES": "COc1c(Cl)cccc1Nc1c(-c2ccncc2C#C[C@@]2(C)CCCN2C(=O)/C=C/CN(C)C)[nH]c2c1C(=O)NCC2", "target": "AKT1", "assay": "binding, competition with immobilised ligand", "conditions": "3 µM", "quantity": "remaining binding", "result": "96%"}
{"SMILES": "NC(=O)C[C@H]1CCc2sc3ncnc(O[C@H]4CC[C@H](N5CCOCC5)CC4)c3c21", "target": "AKT1", "assay": "enzyme activity, inhibitor", "conditions": "10 µM", "quantity": "inhibition", "result": "1%"}
{"SMILES": "CN1CCN(Cc2ccc(-c3ccc(CO[C@H]4CCC[C@@H]4NC(=O)c4cc(-c5cnn(C)c5)cnc4N)cc3)cc2)CC1", "target": "AKT1", "assay": "enzyme activity, inhibitor", "conditions": "0.1 µM", "quantity": "inhibition", "result": "0%"}
{"SMILES": "CC(C)=CC1OC(C)(C)C2C=C3C(=O)C(Cl)=CC(O)C3C3C(O)C4OC4C(=O)C132 (centres unmarked)", "target": "AKT1", "assay": "cell-free assay, competition with immobilised ligand", "conditions": "10 µM", "quantity": "remaining binding", "result": "100%"}
{"SMILES": "C=CC(=O)Nc1cccc(-c2cnc3[nH]cc(C(=O)NC(C)(C)C)c3n2)c1", "target": "AKT1", "assay": "enzyme activity, inhibitor", "conditions": "0.1 µM", "quantity": "inhibition", "result": "0%"}
{"SMILES": "CNS(=O)(=O)Nc1nccc(Cc2c(C)c3ccc(Oc4ncccc4F)cc3oc2=O)c1F", "target": "AKT1", "assay": "binding, competition with immobilised ligand", "conditions": "10 µM", "quantity": "remaining binding", "result": "83%"}
{"SMILES": "COc1ccc(O)cc1-c1c[nH]c2ncc(-c3cncc(C(=O)N(C)C)c3)cc12", "target": "AKT1", "assay": "binding, competition with immobilised ligand", "conditions": "0.2 µM", "quantity": "inhibition", "result": "-1.36%"}
{"SMILES": "O=[N+]([O-])c1ccc(Cn2cc(Cn3cc(CO)nn3)nn2)cc1", "target": "RAC-alpha serine/threonine-protein kinase, PH domain (AKT1, Homo sapiens, UniProt P31749)", "assay": "PIP3 binding to PH domain, SPR", "conditions": "200 µM", "quantity": "inhibition", "result": "64 ± 7%"}
{"SMILES": "Nc1ncc2c(n1)-c1c([nH]c3ccc(C4=CCOCC4)cc13)CCC2", "target": "AKT1", "assay": "binding, competition with immobilised ligand", "conditions": "1 µM", "quantity": "remaining binding", "result": "100%"}
{"SMILES": "Cc1cccc(-c2ccc3nc(NC(=O)C4CCCCC4)nn3c2)c1", "target": "AKT1 S473D", "assay": "enzyme activity", "conditions": "10 µM", "quantity": "remaining activity", "result": "99%"}
{"SMILES": "c1ccc2c(Nc3cc(C4CCC4)[nH]n3)nc(Nc3ccc4nc[nH]c4c3)nc2c1", "target": "AKT1", "assay": "enzyme activity, inhibitor", "conditions": "0.25 µM", "quantity": "remaining activity", "result": "103%"}
{"SMILES": "CN1CCN(Cc2ccc(NC(=O)c3cccc(C#Cc4cnc(N)c5ncccc45)c3)cc2C(F)(F)F)CC1", "target": "AKT1", "assay": "cell-free assay, competition with immobilised ligand", "conditions": "0.5 µM", "quantity": "remaining binding", "result": "100%"}
{"SMILES": "Nc1ncc(-c2cc(-c3cnn(CC(F)(F)F)c3)ncc2F)nc1C(=O)NC1CNCC(F)C1 (centres unmarked)", "target": "AKT1", "assay": "enzyme activity", "conditions": "1 µM", "how to read": "baseline: DMSO control", "quantity": "remaining activity", "result": "107%"}
{"SMILES": "Cc1cccc(O[C@H]2CCC[C@@H](C(C)CNCc3ccncc3)C2)c1 (relative stereo)", "target": "AKT1", "assay": "enzyme activity, inhibitor", "conditions": "10 µM", "quantity": "inhibition", "result": "-4%"}
{"SMILES": "O=C=[N][Ru-4]123([n]4c5ccc(O)cc5c5c6c(c7cc(F)c[n+]1c7c54)C(=O)NC6=O)[S+]1CC[S+]2CC[S+]3CC1 (centres unmarked)", "target": "AKT1", "assay": "enzyme activity", "conditions": "100 nM, human enzyme, added: 10 µM ATP", "how to read": "baseline: untreated", "quantity": "remaining activity", "result": "76%"}
{"SMILES": "COCC12C(=O)NC3C4(C(OC)CC1O)C1CC5(O)C(OC)C(O)C(OC(C)=O)(C1C5OC(=O)c1ccccc1)C3(O)C(OC)C24 (centres unmarked)", "target": "AKT1", "assay": "kinase activity, inhibitor, ProQinase kinase profiling", "conditions": "25 µM", "how to read": "baseline: control", "quantity": "remaining activity", "result": "108% and 107%"}
{"SMILES": "Cc1ccc(C)c(-c2ccc3nc(NC(=O)C4CCCCC4)nn3c2)c1", "target": "AKT1 S473D", "assay": "enzyme activity", "conditions": "10 µM", "quantity": "remaining activity", "result": "98%"}
{"SMILES": "C=CC(=O)N1CCCC(n2c(=O)c3ncccc3n(Cc3ccc(Oc4ccccc4)cc3)c2=O)C1 (centres unmarked)", "target": "AKT1", "assay": "cell-free assay, competition with immobilised ligand", "conditions": "1 µM", "quantity": "remaining binding", "result": "96%"}
{"SMILES": "COc1ccc(C(=O)/C=C/c2ccccc2-c2c[nH]c3ccc(C#N)cc23)c(O)c1", "target": "AKT1", "assay": "enzyme activity, inhibitor", "conditions": "20 µM", "quantity": "inhibition", "result": "14%"}
{"note": "For quick reference, copied from above:"}
{"SMILES": "O=C(Cc1ccc(OCc2ccccc2)cc1)NC1(C(=O)O)CCN(C(=O)c2ccc(-c3cccc(Cl)c3)cc2)CC1", "target": "AKT1", "assay": "enzyme activity, inhibitor", "conditions": "10 µM", "quantity": "activity vs control", "result": "111%"}
{"SMILES": "COc1cc(Nc2nc(C)cc(-c3cnn4nc(OC)ccc34)n2)cc(C(F)(F)F)c1", "target": "AKT1", "assay": "inhibitor", "conditions": "1 µM", "how to read": "baseline: control", "quantity": "remaining activity", "result": "100%"}
{"SMILES": "COc1ccc(NC(=O)Nc2ccc3c(c2)C(=O)N(C(C)CO)CC(C)C(CN(C)Cc2ccc4c(c2)OCO4)O3)cc1 (centres unmarked)", "target": "AKT1", "assay": "binding, competition with immobilised ligand", "conditions": "10 µM", "quantity": "remaining binding", "result": "87%"}
{"SMILES": "CC(=O)N1c2ccc(-c3ccc(CNC(=O)c4cn5cc(-c6cnc(N)nc6)nc(N6CCOCC6)c5n4)cc3)cc2CC[C@@H]1C", "target": "AKT1", "assay": "KINOMEscan", "conditions": "10 µM", "quantity": "remaining binding", "result": "98%"}
